Measurements of several laboratories.
A part holds a random share of what one study measured. Positions count from the first letter of the parent shown.
UniProt O00506, sequence (whole entry, looked up): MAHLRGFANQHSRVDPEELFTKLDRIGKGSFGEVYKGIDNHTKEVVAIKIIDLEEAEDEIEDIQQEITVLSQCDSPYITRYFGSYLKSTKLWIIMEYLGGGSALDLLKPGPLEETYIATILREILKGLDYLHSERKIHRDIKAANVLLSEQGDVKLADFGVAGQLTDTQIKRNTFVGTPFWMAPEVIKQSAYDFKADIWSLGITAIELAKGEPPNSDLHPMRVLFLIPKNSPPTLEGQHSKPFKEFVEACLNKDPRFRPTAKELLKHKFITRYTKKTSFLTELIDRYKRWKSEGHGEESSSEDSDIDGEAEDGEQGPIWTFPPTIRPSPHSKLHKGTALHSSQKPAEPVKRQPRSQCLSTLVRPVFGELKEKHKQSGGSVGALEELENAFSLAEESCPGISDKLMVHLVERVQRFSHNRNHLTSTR
UniProt P51817, sequence (whole entry, looked up): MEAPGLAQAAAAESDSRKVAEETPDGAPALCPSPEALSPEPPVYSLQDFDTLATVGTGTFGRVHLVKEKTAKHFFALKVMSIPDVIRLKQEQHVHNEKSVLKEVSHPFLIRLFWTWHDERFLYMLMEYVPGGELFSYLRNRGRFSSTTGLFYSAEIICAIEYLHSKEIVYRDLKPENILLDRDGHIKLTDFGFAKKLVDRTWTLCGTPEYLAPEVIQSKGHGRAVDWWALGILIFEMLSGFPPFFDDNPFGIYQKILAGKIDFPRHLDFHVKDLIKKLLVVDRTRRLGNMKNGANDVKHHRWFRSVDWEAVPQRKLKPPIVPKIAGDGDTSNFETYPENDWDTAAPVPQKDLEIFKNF

Series 1
Target: UDP-N-acetylglucosamine--peptide N-acetylglucosaminyltransferase 110 kDa subunit (OGT, Homo sapiens, UniProt O15294)
UniProt O15294, sequence (whole entry, looked up): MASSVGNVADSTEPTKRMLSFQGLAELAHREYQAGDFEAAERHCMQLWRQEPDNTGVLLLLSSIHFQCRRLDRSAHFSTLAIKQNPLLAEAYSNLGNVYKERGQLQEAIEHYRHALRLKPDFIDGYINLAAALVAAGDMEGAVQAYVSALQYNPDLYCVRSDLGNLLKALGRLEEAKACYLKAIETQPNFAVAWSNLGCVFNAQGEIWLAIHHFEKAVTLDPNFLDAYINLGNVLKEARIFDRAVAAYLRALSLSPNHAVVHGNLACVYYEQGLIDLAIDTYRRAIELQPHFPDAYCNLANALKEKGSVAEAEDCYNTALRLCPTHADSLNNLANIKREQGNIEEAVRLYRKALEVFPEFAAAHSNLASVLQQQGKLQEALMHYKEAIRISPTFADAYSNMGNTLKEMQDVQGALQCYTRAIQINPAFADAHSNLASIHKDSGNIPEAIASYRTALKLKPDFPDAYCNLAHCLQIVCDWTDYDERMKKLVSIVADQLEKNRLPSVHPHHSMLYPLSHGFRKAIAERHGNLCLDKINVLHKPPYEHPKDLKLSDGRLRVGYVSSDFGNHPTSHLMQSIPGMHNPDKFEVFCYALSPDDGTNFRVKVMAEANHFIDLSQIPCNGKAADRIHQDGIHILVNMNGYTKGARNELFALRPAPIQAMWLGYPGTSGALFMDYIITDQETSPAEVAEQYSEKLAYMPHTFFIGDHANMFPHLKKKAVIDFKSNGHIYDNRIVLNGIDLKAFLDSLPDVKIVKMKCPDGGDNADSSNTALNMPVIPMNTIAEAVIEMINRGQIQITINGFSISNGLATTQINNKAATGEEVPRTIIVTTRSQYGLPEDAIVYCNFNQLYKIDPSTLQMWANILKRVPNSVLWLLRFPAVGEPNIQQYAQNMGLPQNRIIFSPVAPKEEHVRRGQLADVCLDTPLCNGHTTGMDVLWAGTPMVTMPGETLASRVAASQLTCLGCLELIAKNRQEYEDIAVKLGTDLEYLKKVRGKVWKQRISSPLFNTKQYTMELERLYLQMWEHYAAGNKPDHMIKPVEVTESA
Effect on: binding
Technique: phage display NGS
Molecule type: peptide
Concentration: concentration not given
Notes: panning round 2
Relative to: input library
Measurement: enrichment fold change
Sequence = HQHPHGQYKEQIGHY; value = 7.15
Sequence = HPHNMMQHHGNRFDM; value = 7.09
Sequence = ERVYDPMYQIRIDFT; value = 4.13
Sequence = DSYHHPVKKTTHTH; value = 3
Sequence = FPRWHQLPWPHHVYS; value = 10.5
Sequence = YNIYNPAYQIAYKF; value = 7.72
Sequence = QPTTSFPPKYLITYT; value = 28.1
Sequence = WPMKHLHDRWSSHPF; value = 4.91

Series 2
Structure (SMILES): N/C(=N\[N+](=O)[O-])N/N=C\c1ccc(-c2cccc([N+](=O)[O-])c2)o1
Effect on: enzyme activity
Action: inhibitor
Concentration: 0.5 µM
Relative to: control
Measurement: remaining activity
target = PKN1 (Homo sapiens, UniProt Q16512); value = 93.9%
target = STK25 (Homo sapiens, UniProt O00506); value = 86.3%
target = PRKX (Homo sapiens, UniProt P51817); value = 97.8%

Series 3
Target: CCNB1, cyclin fold, Cln2 fusion (human)
Technique: yeast growth competition, sequencing
Sample: yeast
Notes: strong parent motif
Relative to: not given
Reading: higher = stronger binding
Measurement: normalised enrichment score
Starting sequence: viral docking peptide; TSVRRALFTGGSD; partner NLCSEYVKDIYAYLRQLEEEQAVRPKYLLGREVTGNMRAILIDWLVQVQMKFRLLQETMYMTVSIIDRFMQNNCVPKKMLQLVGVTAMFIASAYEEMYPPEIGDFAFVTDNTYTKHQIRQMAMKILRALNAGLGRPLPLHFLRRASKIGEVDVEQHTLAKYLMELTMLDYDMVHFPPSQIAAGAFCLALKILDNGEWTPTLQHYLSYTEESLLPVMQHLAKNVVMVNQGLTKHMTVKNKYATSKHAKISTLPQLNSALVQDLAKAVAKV
Substitution = S12P; value = 2.59
Substitution = L7F; value = -0.0914
Substitution = R5C; value = 0.799
Substitution = A6E; value = 1.84
Substitution = F8P; value = 0.267
Substitution = S12E; value = 3.33
Substitution = V3M; value = 0.0981
Substitution = S12L; value = 1.56

Series 4
Target: tungstate, free oxyanion
Technique: microfluidic competitive inhibition
Sample: in vitro, cell-free expressed
Concentration: not given
Notes: derived from inhibition constants, unchanged parent 2230 nM
Reading: lower = stronger binding
Measurement: oxyanion analog dissociation constant
Starting sequence: PafA, mature enzyme, eGFP fusion (Elizabethkingia meningoseptica, UniProt Q9KJX5); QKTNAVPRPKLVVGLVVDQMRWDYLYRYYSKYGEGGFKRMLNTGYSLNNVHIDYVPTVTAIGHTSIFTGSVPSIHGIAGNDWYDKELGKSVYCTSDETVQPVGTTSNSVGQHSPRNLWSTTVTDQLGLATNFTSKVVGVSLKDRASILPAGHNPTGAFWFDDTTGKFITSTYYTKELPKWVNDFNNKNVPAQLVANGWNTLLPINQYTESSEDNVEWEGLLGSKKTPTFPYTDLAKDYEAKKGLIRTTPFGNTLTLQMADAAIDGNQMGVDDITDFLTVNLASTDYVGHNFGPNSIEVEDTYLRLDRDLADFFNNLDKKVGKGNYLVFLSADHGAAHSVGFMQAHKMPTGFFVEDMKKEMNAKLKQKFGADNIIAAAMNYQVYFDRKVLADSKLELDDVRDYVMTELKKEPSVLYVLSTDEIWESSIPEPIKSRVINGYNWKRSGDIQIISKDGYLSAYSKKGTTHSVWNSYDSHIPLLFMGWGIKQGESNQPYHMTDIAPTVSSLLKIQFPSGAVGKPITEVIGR
Substitution = I74V; value = 2420 nM
Substitution = V320A; value = 1880 nM
Substitution = W22G; value = 2330 nM
Substitution = V50G; value = 867 nM
Substitution = S338G; value = 1780 nM
Substitution = A129V; value = 2050 nM
Substitution = S90G; value = 2000 nM
Substitution = K346G; value = 1670 nM

Series 5
Target: Mu-type opioid receptor (OPRM1, Homo sapiens, UniProt P35372)
UniProt P35372, sequence (whole entry, looked up): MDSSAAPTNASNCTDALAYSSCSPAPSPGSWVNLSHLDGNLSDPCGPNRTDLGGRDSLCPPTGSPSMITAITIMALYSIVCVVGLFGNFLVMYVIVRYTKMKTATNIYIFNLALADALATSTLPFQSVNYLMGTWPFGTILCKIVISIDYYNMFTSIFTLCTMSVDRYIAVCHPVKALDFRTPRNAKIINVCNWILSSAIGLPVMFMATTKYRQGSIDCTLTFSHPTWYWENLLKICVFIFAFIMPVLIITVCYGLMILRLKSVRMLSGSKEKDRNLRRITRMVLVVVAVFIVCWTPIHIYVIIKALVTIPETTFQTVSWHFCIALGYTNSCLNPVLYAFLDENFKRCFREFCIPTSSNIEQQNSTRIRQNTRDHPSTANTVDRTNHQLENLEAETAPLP
Effect on: binding
Technique: radioligand binding
Concentration: 10 µM
Measurement: inhibition
Structure (SMILES) = Cc1c[nH]c2nccc(Oc3c(F)cc(Nc4cc(Cl)nc(N)n4)cc3F)c12; value = -0.03%
Structure (SMILES) = COc1cc(-c2cn(C3CCc4ccccc4N(CC(F)(F)F)C3=O)nn2)ccc1-n1ccc(C)n1 (stereo not drawn); value = 5.55%
Structure (SMILES) = CC(=O)c1c(NS(C)(=O)=O)c2cc(-c3ccc(Cl)cc3)c(-c3ccc(Cl)cc3Cl)nc2n(C)c1=O; value = 34.4%
Structure (SMILES) = Cc1cc(-n2nc(Cc3cc(F)cc(C(F)(F)F)c3)nc2C)ccc1C(N)=O; value = 0.37%
Structure (SMILES) = COc1nc2ccc([C@@](O)(c3ccccc3)C3CCN(C(C)=O)CC3)cc2c(Cl)c1Cc1ccc(-n2cccn2)cc1; value = 25.6%
Structure (SMILES) = CCOCCn1cc(C(=O)Nc2ccc(-n3nc(-c4cccnc4)cc3C(F)(F)F)cn2)ccc1=O; value = 2.68%
Structure (SMILES) = Cc1nc(C2CCN(C(=O)c3ccc(OC(F)(F)F)cc3N)CC2)c2ncc(N3CCN(C)CC3)cc2n1; value = -1.66%
Structure (SMILES) = O=C(Nc1cnc(Oc2ccc(F)cc2)nc1)N1CCc2ncccc2[C@@H]1c1ccc(F)cc1; value = 28.1%
Structure (SMILES) = Cc1nccc(COC(=O)N2C[C@@H]3[C@@H](CNC(=O)c4ccc5[nH]nnc5c4)[C@@H]3C2)n1; value = 12.1%
Structure (SMILES) = CC(C)CC(=O)N1CCc2nc(-c3ccc(Br)cc3)nc(N(C)Cc3ccccc3)c2C1; value = -0.75%
Structure (SMILES) = O=C1CCc2cc(Nc3cc(OC4CCOCC4)c([N+](=O)[O-])cc3Cl)ccc2N1; value = 1.31%
Structure (SMILES) = CC(=O)Nc1nc(CN2CCC[C@H](Cc3cc(C)nc(C)c3)C2)cs1; value = 27.3%
Structure (SMILES) = O=C(Nc1cccnn1)N1CC(CC=Cc2cncc(Oc3ccc(C(F)(F)F)cn3)n2)C1; value = 1.18%
Structure (SMILES) = COCCc1ccc(-c2c(C)nc3c(N4CCOCC4)ccnn23)cn1; value = -1.51%
Structure (SMILES) = CC(=O)Nc1c(F)cc(C(=O)N[C@H]2CC[C@H](O)CC2)cc1O[C@@H](C)c1ccccc1; value = 20.4%
Structure (SMILES) = CCOC(=O)c1cc2cc(-c3cc(C(=O)NCc4ccc(C(=O)O)cc4)nn3C)ccc2[nH]1; value = 0.37%
Structure (SMILES) = Cc1nc(N2CC[C@@H](O)C2)ncc1-c1cc(C(F)(F)F)cc2[nH]ncc12; value = 7.79%
Structure (SMILES) = Cc1c(N2CCCC2)nc2ccc(Br)cc2c1C(=O)NC[C@H](CCC(=O)O)c1ccccc1Cl; value = 11.7%
Structure (SMILES) = CC(=O)N1CCC(c2ccc(C(=O)NC(=N)N)cc2C(F)(F)F)CC1; value = 8.98%
Structure (SMILES) = CC(C)(O)c1cncc(-c2nc3ccc(F)cc3n2C2CC2)c1; value = 0.18%
Structure (SMILES) = O=C(Nc1ccc(-n2nc(-c3cccnc3)cc2C(F)(F)F)cn1)c1ccc(-c2ccccc2)c(F)c1; value = 7.17%

Excerpt of the above (series 5):
Structure (SMILES) = Cc1c[nH]c2nccc(Oc3c(F)cc(Nc4cc(Cl)nc(N)n4)cc3F)c12; value = -0.03%
Structure (SMILES) = COc1cc(-c2cn(C3CCc4ccccc4N(CC(F)(F)F)C3=O)nn2)ccc1-n1ccc(C)n1 (stereo not drawn); value = 5.55%
Structure (SMILES) = CC(=O)c1c(NS(C)(=O)=O)c2cc(-c3ccc(Cl)cc3)c(-c3ccc(Cl)cc3Cl)nc2n(C)c1=O; value = 34.4%
Structure (SMILES) = Cc1cc(-n2nc(Cc3cc(F)cc(C(F)(F)F)c3)nc2C)ccc1C(N)=O; value = 0.37%
Structure (SMILES) = COc1nc2ccc([C@@](O)(c3ccccc3)C3CCN(C(C)=O)CC3)cc2c(Cl)c1Cc1ccc(-n2cccn2)cc1; value = 25.6%
Structure (SMILES) = CCOCCn1cc(C(=O)Nc2ccc(-n3nc(-c4cccnc4)cc3C(F)(F)F)cn2)ccc1=O; value = 2.68%
Structure (SMILES) = Cc1nc(C2CCN(C(=O)c3ccc(OC(F)(F)F)cc3N)CC2)c2ncc(N3CCN(C)CC3)cc2n1; value = -1.66%
